Published values of several laboratories.
Each numbered part is a random draw from the data of one study; scales do not carry over between parts.
UniProt P35626, sequence (whole entry, looked up): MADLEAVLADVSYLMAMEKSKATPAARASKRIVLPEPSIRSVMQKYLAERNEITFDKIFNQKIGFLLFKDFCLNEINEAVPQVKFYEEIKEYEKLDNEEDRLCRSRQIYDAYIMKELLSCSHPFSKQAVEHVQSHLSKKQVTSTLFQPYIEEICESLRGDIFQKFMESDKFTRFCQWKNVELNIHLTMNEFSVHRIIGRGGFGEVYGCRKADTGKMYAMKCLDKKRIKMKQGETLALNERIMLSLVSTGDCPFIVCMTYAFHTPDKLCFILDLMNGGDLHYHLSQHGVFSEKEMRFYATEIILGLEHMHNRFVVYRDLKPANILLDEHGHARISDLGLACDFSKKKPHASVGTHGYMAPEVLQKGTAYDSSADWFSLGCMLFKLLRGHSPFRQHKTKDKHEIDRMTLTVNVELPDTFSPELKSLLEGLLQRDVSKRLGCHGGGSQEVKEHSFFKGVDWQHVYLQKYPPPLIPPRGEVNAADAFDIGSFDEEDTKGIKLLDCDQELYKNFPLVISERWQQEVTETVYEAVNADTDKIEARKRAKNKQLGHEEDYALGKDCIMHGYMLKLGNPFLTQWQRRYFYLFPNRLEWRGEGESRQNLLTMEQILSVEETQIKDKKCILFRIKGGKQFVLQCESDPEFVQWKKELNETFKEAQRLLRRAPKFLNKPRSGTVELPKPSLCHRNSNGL
UniProt P18089, sequence (whole entry, looked up): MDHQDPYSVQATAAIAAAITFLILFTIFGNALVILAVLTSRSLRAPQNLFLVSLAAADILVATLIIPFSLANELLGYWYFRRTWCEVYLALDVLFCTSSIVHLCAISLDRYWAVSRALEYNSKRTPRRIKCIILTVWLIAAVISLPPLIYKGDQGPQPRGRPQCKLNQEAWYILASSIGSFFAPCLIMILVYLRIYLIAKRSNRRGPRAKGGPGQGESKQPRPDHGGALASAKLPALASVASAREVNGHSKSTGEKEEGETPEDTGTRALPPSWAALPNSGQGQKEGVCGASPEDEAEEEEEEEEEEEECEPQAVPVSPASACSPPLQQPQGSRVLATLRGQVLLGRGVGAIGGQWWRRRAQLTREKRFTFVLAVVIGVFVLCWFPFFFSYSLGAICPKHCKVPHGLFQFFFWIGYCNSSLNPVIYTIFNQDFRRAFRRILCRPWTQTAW
UniProt P45984, sequence (whole entry, looked up): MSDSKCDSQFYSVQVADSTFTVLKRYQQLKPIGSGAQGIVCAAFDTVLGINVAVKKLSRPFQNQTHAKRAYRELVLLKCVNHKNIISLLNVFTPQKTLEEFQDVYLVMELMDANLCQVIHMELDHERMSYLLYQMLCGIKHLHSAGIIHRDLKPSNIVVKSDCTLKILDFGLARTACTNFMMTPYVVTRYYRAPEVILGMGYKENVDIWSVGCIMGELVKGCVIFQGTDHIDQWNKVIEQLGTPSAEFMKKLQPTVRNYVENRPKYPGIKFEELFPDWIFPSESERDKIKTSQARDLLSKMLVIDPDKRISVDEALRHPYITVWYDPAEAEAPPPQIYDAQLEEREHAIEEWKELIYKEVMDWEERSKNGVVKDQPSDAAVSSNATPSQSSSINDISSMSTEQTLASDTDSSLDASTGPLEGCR
UniProt O14920, sequence (whole entry, looked up): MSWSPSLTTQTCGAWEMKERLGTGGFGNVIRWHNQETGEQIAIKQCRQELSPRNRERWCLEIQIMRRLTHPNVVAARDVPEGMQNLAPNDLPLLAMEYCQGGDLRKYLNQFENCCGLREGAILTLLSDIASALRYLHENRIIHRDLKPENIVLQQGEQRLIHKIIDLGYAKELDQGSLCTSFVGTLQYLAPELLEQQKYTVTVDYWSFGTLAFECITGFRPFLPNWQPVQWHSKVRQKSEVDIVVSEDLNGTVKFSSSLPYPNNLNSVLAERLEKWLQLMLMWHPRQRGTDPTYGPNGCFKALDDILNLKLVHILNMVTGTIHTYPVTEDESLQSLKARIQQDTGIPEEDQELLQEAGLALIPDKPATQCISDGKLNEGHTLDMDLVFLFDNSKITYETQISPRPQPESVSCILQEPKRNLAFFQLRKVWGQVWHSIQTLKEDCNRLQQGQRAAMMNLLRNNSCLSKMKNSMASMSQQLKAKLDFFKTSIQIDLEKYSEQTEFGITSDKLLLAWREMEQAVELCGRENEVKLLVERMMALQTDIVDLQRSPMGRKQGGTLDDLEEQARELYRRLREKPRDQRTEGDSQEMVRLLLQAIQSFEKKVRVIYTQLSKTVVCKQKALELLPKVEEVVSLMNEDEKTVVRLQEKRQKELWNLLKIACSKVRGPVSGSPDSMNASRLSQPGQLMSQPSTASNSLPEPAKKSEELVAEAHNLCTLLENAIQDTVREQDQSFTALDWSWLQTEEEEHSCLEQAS
UniProt Q96RR4, sequence (whole entry, looked up): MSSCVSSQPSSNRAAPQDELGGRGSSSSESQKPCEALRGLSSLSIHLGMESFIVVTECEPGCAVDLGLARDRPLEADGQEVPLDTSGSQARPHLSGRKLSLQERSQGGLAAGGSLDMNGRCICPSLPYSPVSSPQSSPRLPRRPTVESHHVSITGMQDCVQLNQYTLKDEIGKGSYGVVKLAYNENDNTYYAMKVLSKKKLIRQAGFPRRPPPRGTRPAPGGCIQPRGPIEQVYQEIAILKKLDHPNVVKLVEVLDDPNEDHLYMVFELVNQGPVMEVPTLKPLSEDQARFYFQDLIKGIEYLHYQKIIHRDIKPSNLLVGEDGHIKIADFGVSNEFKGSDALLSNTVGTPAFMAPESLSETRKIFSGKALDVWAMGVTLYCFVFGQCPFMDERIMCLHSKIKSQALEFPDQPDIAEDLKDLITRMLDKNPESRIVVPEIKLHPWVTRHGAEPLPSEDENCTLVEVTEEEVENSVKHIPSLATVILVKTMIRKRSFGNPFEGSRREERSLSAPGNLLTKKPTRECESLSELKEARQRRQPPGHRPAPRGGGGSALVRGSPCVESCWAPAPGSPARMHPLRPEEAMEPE
UniProt Q9H3N8, sequence (whole entry, looked up): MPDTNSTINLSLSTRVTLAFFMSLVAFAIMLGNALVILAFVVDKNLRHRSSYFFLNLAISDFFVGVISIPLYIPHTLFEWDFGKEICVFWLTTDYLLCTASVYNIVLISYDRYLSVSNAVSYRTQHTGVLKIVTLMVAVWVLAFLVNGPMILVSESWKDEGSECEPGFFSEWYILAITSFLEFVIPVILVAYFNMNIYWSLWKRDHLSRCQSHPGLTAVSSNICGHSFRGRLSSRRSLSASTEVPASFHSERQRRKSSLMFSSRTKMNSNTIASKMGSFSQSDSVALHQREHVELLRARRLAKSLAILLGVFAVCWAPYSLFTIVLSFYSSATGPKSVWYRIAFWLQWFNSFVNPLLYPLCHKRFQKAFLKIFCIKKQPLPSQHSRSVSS
UniProt O95747, sequence (whole entry, looked up): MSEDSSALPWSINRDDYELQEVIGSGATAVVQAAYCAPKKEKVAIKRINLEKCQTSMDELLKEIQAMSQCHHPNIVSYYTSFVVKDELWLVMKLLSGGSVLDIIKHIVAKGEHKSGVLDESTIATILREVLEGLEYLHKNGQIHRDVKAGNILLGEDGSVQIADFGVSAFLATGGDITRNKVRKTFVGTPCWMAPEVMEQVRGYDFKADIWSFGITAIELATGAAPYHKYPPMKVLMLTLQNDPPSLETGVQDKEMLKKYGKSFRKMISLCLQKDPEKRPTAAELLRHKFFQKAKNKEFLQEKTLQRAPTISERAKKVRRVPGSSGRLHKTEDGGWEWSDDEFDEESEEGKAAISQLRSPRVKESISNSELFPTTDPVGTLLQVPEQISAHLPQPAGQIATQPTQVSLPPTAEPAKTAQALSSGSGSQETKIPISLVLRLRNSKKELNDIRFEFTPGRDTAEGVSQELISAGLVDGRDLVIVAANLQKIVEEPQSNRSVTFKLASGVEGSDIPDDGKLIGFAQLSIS
UniProt P08172, sequence (whole entry, looked up): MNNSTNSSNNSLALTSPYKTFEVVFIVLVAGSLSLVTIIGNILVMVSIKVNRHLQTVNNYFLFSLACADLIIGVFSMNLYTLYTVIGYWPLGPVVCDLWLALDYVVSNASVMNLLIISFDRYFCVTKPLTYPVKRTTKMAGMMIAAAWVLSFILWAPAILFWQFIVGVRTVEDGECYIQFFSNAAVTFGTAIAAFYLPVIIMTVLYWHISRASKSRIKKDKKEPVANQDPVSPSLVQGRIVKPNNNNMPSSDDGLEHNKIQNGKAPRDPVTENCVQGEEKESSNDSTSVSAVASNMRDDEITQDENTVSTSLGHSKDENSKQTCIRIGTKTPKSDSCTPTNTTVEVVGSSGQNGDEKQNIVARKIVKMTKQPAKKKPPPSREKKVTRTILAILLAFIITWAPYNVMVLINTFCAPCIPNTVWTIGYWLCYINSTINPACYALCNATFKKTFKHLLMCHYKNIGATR
UniProt Q5BJF2, sequence (whole entry, looked up): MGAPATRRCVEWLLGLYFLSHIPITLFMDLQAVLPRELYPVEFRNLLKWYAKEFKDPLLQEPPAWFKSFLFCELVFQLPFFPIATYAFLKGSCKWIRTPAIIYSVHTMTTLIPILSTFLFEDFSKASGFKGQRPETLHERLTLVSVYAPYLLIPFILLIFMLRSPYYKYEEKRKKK
UniProt P35368, sequence (whole entry, looked up): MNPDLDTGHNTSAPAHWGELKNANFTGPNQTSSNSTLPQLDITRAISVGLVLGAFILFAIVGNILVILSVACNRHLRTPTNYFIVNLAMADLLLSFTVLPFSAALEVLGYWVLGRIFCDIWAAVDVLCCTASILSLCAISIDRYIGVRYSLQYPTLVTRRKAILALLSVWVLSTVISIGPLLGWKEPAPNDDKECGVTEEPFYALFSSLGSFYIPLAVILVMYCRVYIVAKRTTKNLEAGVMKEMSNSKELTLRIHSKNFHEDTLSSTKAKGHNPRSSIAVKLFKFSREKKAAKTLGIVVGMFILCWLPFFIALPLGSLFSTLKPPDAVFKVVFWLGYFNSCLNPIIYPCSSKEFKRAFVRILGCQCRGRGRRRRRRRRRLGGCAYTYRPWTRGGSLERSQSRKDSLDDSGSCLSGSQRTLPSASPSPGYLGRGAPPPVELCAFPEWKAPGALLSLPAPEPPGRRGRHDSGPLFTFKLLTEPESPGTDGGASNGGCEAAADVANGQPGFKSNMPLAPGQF

Set 1 — host: human; medium: microsomes or S9; concentration: 2 µM; time: 0.5 h
| SMILES | remaining compound [%] |
| --- | --- |
| c1ccc2c(c1)CCCC2N1CCC2(CC1)Oc1ccccc1C1CC(c3ccncc3)=NN12 (stereo not drawn) | 24.1 |
| Clc1ccc(-c2cn3c4ccccc4n(CCN4CCCCC4)c3n2)cc1Cl | 6.67 |
| COc1ccc(S(=O)(=O)N(C)c2ccc(C(=O)Nc3ccccc3-c3ccccc3)cc2)cc1 | 75.2 |
| CCn1nc(C)c(CNc2nc(N)nc3nc[nH]c23)n1 | > 100 |
| N#Cc1c(NC(=O)c2n[nH]c(-n3cnnc3)n2)sc2c1CCCC2 | > 100 |
| Cc1nc(C)c(S(=O)(=O)N(C)CC(C)(C)O)s1 | 68.8 |
| O=C(N1CCOC2(CCCC2)C1)C1(c2ccccc2)CCOCC1 | 12.6 |
| CC(C)(C)OC(=O)N[C@@H](CC(=O)N1N=CCC1C(=O)OCc1ccccc1)Cc1cc(F)c(F)cc1F (stereo partly drawn) | 98 |

Set 2 — medium: plasma
SMILES: O=C1CCC(N2Cc3cc(C4CCN(Cc5ccccc5)CC4)ccc3C2=O)C(=O)N1 (stereo not drawn)
| host | route | dose | MRT(0-t) [h] |
| --- | --- | --- | --- |
| male CD-1 mouse | oral | 3 mg/kg | 1.7 |
| Sprague Dawley rat, male | oral | 3.0 mg/kg | 2.93 |
| male CD-1 mouse | intravenous | 1 mg/kg | 2.01 |

Set 3 — observed: cell-free assay; concentration: 10 µM
Compound: CNCc1ccccc1-c1csc([C@@H](C)Nc2nc(C)nc3cc(OC)c(OC)cc23)c1
| target | inhibition |
| --- | --- |
| ADRB3 (Homo sapiens, UniProt P13945) | 20% |
| DRD3 (Homo sapiens, UniProt P35462) | 56.8% |
| ADRA2C (Homo sapiens, UniProt P18825) | 94.2% |
| ADRA1D (Homo sapiens, UniProt P25100) | 75% |
| DRD4 (Homo sapiens, UniProt P21917) | 56.7% |
| HRH2 (Homo sapiens, UniProt P25021) | 100% |
| ADRB1 (Homo sapiens, UniProt P08588) | -11.2% |
| HRH4 (Homo sapiens, UniProt Q9H3N8) | 42.1% |
| CHRM4 (Homo sapiens, UniProt P08173) | 43.1% |
| TMEM97 (Homo sapiens, UniProt Q5BJF2) | 94.8% |
| DRD2 (Homo sapiens, UniProt P14416) | 32.3% |
| CHRM2 (Homo sapiens, UniProt P08172) | 74.2% |
| ADRA2B (Homo sapiens, UniProt P18089) | 64.2% |
| ADRA1B (Homo sapiens, UniProt P35368) | 85.8% |
| HRH3 (Homo sapiens, UniProt Q9Y5N1) | 26.7% |
| ADRB2 (Homo sapiens, UniProt P07550) | 12.1% |

Set 4 — observed: enzyme activity; mode: inhibitor; concentration: 0.5 µM; relative to: control
SMILES: COc1cc2c(N3CCN(C(=O)Nc4ccc(OC(C)C)cc4)CC3)ncnc2cc1OCCCN1CCCCC1
| target | remaining activity |
| --- | --- |
| CAMKK2 (Homo sapiens, UniProt Q96RR4) | 101% |
| GRK3 (Homo sapiens, UniProt P35626) | 97.6% |
| Protein kinase C beta type, isoform beta-I (PRKCB, Homo sapiens, UniProt P05771) | 98.4% |
| PRKACA (Homo sapiens, UniProt P17612) | 103% |
| NEK2 (Homo sapiens, UniProt P51955) | 101% |
| CAMK2D (Homo sapiens, UniProt Q13557) | 106% |
| OXSR1 (Homo sapiens, UniProt O95747) | 95.8% |
| DAPK2 (Homo sapiens, UniProt Q9UIK4) | 104% |
| DAPK1 (Homo sapiens, UniProt P53355) | 103% |
| PRKCA (Homo sapiens, UniProt P17252) | 109% |
| MAPK9 (Homo sapiens, UniProt P45984) | 103% |
| CHEK2 (Homo sapiens, UniProt O96017) | 100% |
| STK11 (Homo sapiens, UniProt Q15831) | 104% |
| cGMP-dependent protein kinase 1, isoform beta (PRKG1, Homo sapiens, UniProt Q13976) | 102% |
| Cyclin-dependent kinase 5, with p25 (CDK5, Homo sapiens, UniProt Q00535) | 104% |
| Tyrosine-protein kinase Lyn, isoform B (LYN, Homo sapiens, UniProt P07948) | 103% |
| Cyclin-dependent kinase 4, with cyclin D1 (CDK4, Homo sapiens, UniProt P11802) | 92.5% |
| IKBKB (Homo sapiens, UniProt O14920) | 97.3% |

For quick reference, copied from above (set 4):
| target | remaining activity |
| --- | --- |
| DAPK1 (Homo sapiens, UniProt P53355) | 103% |
| PRKCA (Homo sapiens, UniProt P17252) | 109% |
| MAPK9 (Homo sapiens, UniProt P45984) | 103% |
